# Published values gathered from unrelated publications.
# Each numbered part is a random draw from the data of one study; scales do not carry over between parts.
# UniProt P10721, sequence (whole entry, unmodified, looked up): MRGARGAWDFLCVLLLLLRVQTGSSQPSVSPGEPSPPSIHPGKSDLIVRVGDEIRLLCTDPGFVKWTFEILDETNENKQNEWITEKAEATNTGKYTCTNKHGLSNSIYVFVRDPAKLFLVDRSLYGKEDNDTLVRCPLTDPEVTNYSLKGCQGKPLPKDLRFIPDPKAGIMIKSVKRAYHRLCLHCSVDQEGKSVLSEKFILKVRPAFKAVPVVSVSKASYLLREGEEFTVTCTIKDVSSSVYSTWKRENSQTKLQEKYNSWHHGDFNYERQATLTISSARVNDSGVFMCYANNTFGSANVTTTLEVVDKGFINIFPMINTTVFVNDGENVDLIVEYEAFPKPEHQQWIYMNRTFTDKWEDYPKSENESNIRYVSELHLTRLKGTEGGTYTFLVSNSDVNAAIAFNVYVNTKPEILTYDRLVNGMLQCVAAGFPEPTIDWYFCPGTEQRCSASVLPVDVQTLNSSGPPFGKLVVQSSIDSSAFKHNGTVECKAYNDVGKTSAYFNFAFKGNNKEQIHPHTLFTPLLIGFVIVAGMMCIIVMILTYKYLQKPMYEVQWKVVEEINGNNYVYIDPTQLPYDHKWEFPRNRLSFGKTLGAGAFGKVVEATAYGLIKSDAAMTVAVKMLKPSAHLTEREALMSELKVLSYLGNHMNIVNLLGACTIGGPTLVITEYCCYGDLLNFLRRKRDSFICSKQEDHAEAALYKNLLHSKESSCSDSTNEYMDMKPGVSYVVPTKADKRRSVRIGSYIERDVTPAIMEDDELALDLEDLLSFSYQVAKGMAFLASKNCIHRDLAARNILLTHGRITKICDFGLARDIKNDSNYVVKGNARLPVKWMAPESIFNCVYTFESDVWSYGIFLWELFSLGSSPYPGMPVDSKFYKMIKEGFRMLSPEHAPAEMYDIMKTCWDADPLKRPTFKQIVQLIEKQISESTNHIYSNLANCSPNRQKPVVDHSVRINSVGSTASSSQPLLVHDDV
# UniProt O00329, sequence (whole entry, looked up): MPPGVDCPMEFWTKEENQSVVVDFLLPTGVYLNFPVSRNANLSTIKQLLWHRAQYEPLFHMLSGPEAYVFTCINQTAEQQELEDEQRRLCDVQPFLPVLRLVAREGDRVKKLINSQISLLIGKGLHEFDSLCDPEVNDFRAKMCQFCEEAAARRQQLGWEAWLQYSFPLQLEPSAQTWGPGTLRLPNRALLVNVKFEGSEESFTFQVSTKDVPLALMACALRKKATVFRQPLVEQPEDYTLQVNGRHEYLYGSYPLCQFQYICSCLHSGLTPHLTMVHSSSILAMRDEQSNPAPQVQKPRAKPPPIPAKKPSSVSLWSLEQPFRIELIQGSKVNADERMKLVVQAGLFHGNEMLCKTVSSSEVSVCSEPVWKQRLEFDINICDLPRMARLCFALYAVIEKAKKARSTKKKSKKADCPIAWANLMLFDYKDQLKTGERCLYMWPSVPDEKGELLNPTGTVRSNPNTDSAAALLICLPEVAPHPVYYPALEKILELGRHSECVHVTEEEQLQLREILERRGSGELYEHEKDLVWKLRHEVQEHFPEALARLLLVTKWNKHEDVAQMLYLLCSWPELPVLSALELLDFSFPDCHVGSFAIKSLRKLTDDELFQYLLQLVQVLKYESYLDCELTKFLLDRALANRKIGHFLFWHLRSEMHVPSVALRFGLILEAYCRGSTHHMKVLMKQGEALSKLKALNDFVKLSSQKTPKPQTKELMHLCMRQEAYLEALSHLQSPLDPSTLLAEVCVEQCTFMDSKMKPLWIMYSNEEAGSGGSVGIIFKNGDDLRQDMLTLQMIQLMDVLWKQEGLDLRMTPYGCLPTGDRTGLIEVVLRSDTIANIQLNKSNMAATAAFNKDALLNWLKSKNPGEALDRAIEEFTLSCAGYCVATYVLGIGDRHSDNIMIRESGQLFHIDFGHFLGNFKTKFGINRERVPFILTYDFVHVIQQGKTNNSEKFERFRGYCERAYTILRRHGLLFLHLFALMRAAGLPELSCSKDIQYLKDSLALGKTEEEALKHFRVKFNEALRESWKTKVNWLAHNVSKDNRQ
# UniProt P04049, sequence (whole entry, looked up): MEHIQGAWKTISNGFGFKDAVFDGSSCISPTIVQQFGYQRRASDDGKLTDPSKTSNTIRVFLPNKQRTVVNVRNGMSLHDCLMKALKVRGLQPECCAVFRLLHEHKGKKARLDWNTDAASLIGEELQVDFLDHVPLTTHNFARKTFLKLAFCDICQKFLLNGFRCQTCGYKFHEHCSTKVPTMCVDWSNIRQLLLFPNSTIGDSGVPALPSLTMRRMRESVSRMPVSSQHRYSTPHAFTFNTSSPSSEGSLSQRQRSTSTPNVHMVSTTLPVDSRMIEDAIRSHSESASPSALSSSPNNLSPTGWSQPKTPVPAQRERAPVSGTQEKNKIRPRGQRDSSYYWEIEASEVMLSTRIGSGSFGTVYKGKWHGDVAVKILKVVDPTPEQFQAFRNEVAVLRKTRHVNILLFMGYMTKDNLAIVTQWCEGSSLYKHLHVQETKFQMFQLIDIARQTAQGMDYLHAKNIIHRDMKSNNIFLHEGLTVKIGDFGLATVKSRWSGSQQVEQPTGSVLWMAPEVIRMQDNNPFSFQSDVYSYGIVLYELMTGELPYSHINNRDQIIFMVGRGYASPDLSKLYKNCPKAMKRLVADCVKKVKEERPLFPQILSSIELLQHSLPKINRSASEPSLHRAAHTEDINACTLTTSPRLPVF
# UniProt Q13188, sequence (whole entry, looked up): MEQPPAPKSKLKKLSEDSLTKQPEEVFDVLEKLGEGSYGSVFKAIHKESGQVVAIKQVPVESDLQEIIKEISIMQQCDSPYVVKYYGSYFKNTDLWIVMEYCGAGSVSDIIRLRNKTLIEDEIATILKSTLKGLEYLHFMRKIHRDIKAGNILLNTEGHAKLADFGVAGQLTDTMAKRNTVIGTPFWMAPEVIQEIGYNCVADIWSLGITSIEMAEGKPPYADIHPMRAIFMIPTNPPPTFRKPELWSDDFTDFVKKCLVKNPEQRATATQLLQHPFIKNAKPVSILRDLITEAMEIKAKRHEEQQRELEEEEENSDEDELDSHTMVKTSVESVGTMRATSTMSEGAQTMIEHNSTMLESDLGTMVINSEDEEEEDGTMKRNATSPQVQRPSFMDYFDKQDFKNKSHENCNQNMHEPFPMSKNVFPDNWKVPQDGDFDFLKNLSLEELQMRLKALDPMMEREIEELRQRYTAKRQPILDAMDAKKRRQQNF
# UniProt P22455, sequence (whole entry, looked up): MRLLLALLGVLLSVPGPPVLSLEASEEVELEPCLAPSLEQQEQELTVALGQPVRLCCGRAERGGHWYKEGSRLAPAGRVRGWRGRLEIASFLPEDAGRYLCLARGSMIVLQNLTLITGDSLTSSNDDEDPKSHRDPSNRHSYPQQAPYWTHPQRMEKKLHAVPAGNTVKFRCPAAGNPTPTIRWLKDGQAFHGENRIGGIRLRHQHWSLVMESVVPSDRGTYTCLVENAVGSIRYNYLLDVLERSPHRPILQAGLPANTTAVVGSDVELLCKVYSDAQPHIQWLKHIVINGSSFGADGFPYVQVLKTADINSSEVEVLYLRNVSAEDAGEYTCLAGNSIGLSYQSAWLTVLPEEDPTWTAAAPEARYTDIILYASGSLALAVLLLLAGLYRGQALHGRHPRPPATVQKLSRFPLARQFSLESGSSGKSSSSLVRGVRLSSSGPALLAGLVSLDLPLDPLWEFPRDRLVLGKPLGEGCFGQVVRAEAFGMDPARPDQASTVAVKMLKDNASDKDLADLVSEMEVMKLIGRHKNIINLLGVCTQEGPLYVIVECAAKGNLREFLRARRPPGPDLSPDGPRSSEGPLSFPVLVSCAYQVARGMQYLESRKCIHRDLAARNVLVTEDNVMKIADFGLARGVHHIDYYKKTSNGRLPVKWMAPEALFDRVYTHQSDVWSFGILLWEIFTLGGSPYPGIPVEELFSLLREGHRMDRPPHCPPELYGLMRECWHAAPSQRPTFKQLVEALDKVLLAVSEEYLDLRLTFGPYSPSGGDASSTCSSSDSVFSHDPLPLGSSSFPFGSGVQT

# Set 1 — observed: cell-free assay; method: competition with immobilised ligand; tested at: 1 µM
# SMILES: O=S(=O)(NC1CCC(c2cc(F)ccc2F)(S(=O)(=O)c2ccc(Cl)cc2)CC1)C(F)(F)F (centres unmarked)
target,remaining binding [%]
"Phosphatidylinositol 4,5-bisphosphate 3-kinase catalytic subunit delta isoform (PIK3CD, Homo sapiens, UniProt O00329)",100
"Ribosomal protein S6 kinase alpha-3, N-terminal kinase domain (RPS6KA3, Homo sapiens, UniProt P51812)",96
"Mast/stem cell growth factor receptor Kit (KIT, Homo sapiens, UniProt P10721, D816V)",92
"Cyclin-dependent kinase-like 5 (CDKL5, Homo sapiens, UniProt O76039)",87
"Ephrin type-A receptor 5 (EPHA5, Homo sapiens, UniProt P54756)",100
"TRAF2 and NCK-interacting protein kinase (TNIK, Homo sapiens, UniProt Q9UKE5)",82
"RAF proto-oncogene serine/threonine-protein kinase (RAF1, Homo sapiens, UniProt P04049)",100
"Tyrosine-protein kinase ABL1, non-phosphorylated (ABL1, Homo sapiens, UniProt P00519)",88
"Serine/threonine-protein kinase 3 (STK3, Homo sapiens, UniProt Q13188)",100
"Fibroblast growth factor receptor 4 (FGFR4, Homo sapiens, UniProt P22455)",100
"Mast/stem cell growth factor receptor Kit (KIT, Homo sapiens, UniProt P10721, T670I/V559D)",100
"Mitogen-activated protein kinase kinase kinase kinase 5 (MAP4K5, Homo sapiens, UniProt Q9Y4K4)",69
"Epidermal growth factor receptor (EGFR, Homo sapiens, UniProt P00533, G719S)",100
"Serine/threonine-protein kinase DCLK3 (DCLK3, Homo sapiens, UniProt Q9C098)",100
"Ephrin type-B receptor 1 (EPHB1, Homo sapiens, UniProt P54762)",100
"Epithelial discoidin domain-containing receptor 1 (DDR1, Homo sapiens, UniProt Q08345)",100
"Serine/threonine-protein kinase BRSK1 (BRSK1, Homo sapiens, UniProt Q8TDC3)",92
"Serine/threonine-protein kinase N1 (PKN1, Homo sapiens, UniProt Q16512)",100
"Homeodomain-interacting protein kinase 2 (HIPK2, Homo sapiens, UniProt Q9H2X6)",81
"Phosphatidylinositol 4,5-bisphosphate 3-kinase catalytic subunit alpha isoform (PIK3CA, Homo sapiens, UniProt P42336, H1047Y)",100
"cGMP-dependent protein kinase 1 (PRKG1, Homo sapiens, UniProt Q13976)",100
"Epidermal growth factor receptor (EGFR, Homo sapiens, UniProt P00533, del752-759)",100
"Tyrosine-protein kinase ABL1, phosphorylated (ABL1, Homo sapiens, UniProt P00519, Q252H)",84
"SRSF protein kinase 2 (SRPK2, Homo sapiens, UniProt P78362)",65
"Receptor tyrosine-protein kinase erbB-3 (ERBB3, Homo sapiens, UniProt P21860)",93

# Set 2 — observed: enzyme activity; action: inhibitor; tested at: 10 µM
# Target: Calcium/calmodulin-dependent protein kinase type II subunit alpha (CAMK2A, Homo sapiens, UniProt Q9UQM7)
# UniProt Q9UQM7, sequence (whole entry, looked up): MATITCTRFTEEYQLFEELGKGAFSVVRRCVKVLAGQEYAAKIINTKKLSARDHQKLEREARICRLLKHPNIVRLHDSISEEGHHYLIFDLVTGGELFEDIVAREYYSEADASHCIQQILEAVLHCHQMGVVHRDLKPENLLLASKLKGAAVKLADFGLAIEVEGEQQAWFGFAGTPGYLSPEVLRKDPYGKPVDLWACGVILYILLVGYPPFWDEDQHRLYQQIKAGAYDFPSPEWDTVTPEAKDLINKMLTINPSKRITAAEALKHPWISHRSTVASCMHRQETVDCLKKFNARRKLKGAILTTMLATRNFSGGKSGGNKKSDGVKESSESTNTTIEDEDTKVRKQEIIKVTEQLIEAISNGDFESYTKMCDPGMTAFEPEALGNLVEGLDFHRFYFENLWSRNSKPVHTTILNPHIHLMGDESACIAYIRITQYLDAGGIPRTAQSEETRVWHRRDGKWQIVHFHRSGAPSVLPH
SMILES,inhibition [%]
O=C(O)C1=CO[C@@H](O[C@@H]2O[C@H](CO)[C@@H](O)[C@H](O)[C@H]2O)[C@H]2[C@@H]1C=C[C@]2(O)CO,-27
CN(C)CCOc1ccc(/C(=C(/CCCl)c2ccccc2)c2ccccc2)cc1,-14
CC[C@@H](C(=O)[C@@H](C)[C@@H](O)[C@H](C)CCc1ccc(C)c(O)c1C(=O)O)[C@H]1O[C@](CC)([C@H]2CC[C@](O)(CC)[C@H](C)O2)C[C@@H]1C,30
CC(=O)OC/C=C(/C)CCC=C(C)C,-10
COC1=C(OC)C(=O)C(CCCCCCCCCCO)=C(C)C1=O,3
NCC(O)c1ccc(O)c(O)c1 (racemic),-5
CCCCCC[C@@H](O)C/C=C\CCCCCCCC(=O)O,-26
CC(C)(O)[C@@H]1CC[C@](C)([C@H]2[C@@H](O)C[C@@]3(C)[C@@H]4C[C@H](O)[C@H]5C(C)(C)[C@@H](O)CC[C@@]56C[C@@]46CC[C@]23C)O1,24
C[C@H](N[C@@H](CCc1ccccc1)C(=O)O)C(=O)N1CCC[C@H]1C(=O)O,-6

# Set 3 — species: mouse; sample: microsomes or S9; tested at: 2 µM; time: 0.5 h
SMILES,remaining compound [%]
CC(c1ccc(-c2ccc(S(N)(=O)=O)cc2F)cc1)N1CCOCC1 (centres unmarked),37.9
CC1(C)CC(S(=O)(=O)CC2(C)CC(c3ccc(Br)o3)=NO2)=NO1 (centres unmarked),11.7
O=C(O)CC1NC(=O)N(c2ccc(Cl)cc2)C1=O (centres unmarked),85.7
Cc1cc(O)c(C(c2ccco2)c2c(O)cc(C)n(C)c2=O)c(=O)n1C,30.6
COC(=O)c1ccc2c(c1)nc(-c1ccc(C(C)(C)C)cc1)n2Cc1ccc(F)cc1,46.3

# Set 4 — observed: RNA clamping; method: fluorescence polarization; tested at: concentration not given; together with: FAM-labelled poly r(AG)8 RNA
# Target: Eukaryotic initiation factor 4A-III (Homo sapiens, UniProt P38919)
# UniProt P38919, sequence (whole entry, looked up): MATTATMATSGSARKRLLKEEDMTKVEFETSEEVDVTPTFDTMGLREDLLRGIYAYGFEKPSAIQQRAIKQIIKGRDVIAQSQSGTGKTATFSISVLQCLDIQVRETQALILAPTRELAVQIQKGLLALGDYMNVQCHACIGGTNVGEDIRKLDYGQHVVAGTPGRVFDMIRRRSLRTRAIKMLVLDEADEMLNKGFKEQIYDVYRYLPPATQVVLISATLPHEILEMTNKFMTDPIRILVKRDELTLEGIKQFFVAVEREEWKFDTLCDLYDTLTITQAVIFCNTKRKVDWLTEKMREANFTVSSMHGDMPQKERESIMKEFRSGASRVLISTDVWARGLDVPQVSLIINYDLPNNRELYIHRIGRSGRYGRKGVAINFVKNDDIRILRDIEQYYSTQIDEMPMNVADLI
Compound,fluorescence polarization change [mP]
COc1ccc([C@@]23Oc4cc(OC)cc(OC)c4[C@]2(O)c2nc(-c4ccccc4)[nH]c(=O)c2/C3=C\Cc2ccccc2)cc1,2.7
COc1ccc([C@@]23Oc4cc(OC)cc(OC)c4[C@]2(O)c2nc(C)[nH]c(=O)c2[C@H]3c2ccccc2)cc1,51.7
COC(=O)[C@H]1C(=O)[C@@]2(NCCN3CCOCC3)c3c(OC)cc(OC)cc3O[C@@]2(c2ccc(OC)cc2)[C@@H]1c1ccccc1,13.7
C#CCCC1(CCOc2ccc([C@@H]3[C@@H](C(=O)N(C)OC)[C@@H](O)[C@@]4(O)c5c(OC)cc(OC)cc5O[C@@]34c3ccc(OC)cc3)cc2)N=N1,3.4
COc1cc(OC)c2c(c1)O[C@@]1(c3ccc(OC)c(O)c3)[C@H](c3ccccc3)[C@@H](C(=O)c3ccco3)[C@@H](O)[C@@]21O,3.1
COC(=O)[C@H]1C(=O)[C@@]2(Nc3ccccc3)c3c(OC)cc(OC)cc3O[C@@]2(c2ccc(OC)cc2)[C@@H]1c1ccccc1,2.3
COC(=O)/C=C/n1c(-c2ccccc2)nc2c(c1=O)[C@@H](c1ccccc1)[C@]1(c3ccc(OC)cc3)Oc3cc(OC)cc(OC)c3[C@]21O,8.8
COc1ccc([C@@]23Oc4cc(OC)cc(OC)c4[C@]2(O)[C@H](O)[C@H](C(=O)c2ccco2)[C@H]3c2ccc(Br)cc2)cc1,1.3

# Set 5 — organism: Plasmodium berghei; action: inhibitor; cells: Huh-7; strain: GFP-expressing sporozoites, liver stage; tested at: 10 µM; time: 24 h; reference: untreated control
SMILES,infection rate [%]
Oc1c(Cl)cc(Cl)c(Cl)c1Cc1c(O)c(Cl)cc(Cl)c1Cl,0.28
C=C[C@@]1(C)CC(=O)[C@]2(O)[C@@]3(C)[C@@H](O)CCC(C)(C)[C@@H]3[C@H](O)[C@H](OC(C)=O)[C@@]2(C)O1,64.5
O=C1CC2(CCCC2)CC(=O)N1CCCCN1CCN(c2ncccn2)CC1,72.5
C[C@@H]1CCC[C@H](C)N1NC(=O)c1ccc(Cl)c(S(N)(=O)=O)c1,92.1
CNCCCN1c2ccccc2CCc2ccccc21,79
CCCc1ncc(C[n+]2ccccc2C)c(N)n1,98.4
Cc1cc(C(C)(C)CC(C)(C)C)ccc1OCCOCC[N+](C)(C)Cc1ccccc1,7.17
CCN1CCN(c2cc3c(cc2F)c(=O)c(C(=O)O)cn3C2CC2)CC1,84.1
O=C1O[C@H]([C@@H](O)CO)C(O)=C1O,95.5

# Excerpt of the above (set 1):
target,remaining binding [%]
"Fibroblast growth factor receptor 4 (FGFR4, Homo sapiens, UniProt P22455)",100
"Serine/threonine-protein kinase N1 (PKN1, Homo sapiens, UniProt Q16512)",100
"Tyrosine-protein kinase ABL1, phosphorylated (ABL1, Homo sapiens, UniProt P00519, Q252H)",84
"Serine/threonine-protein kinase 3 (STK3, Homo sapiens, UniProt Q13188)",100
